# Measurements collected from several papers.
# Each line is one published result; not all experiments were run side by side.
SMILES,test system,setting,Tmax [h]
CCCCCOc1ccc(-c2cc(-c3ccc(C(=O)N[C@H]4C[C@@H](O)[C@@H](O)NC(=O)[C@@H]5[C@@H](O)[C@@H](C)CN5C(=O)[C@H]([C@H](O)CC(N)=O)NC(=O)[C@H]([C@H](O)[C@@H](O)c5ccc(O)c(OS(=O)(=O)O)c5)NC(=O)[C@@H]5C[C@@H](O)CN5C(=O)[C@H]([C@@H](C)O)NC4=O)cc3)no2)cc1,"human children aged 12-16 years, plasma","intravenous, 3 mg/kg once daily, day 7, geometric mean",1.3
CC(C)C[C@H](NC(=O)CNC(=O)c1cc(Cl)ccc1Cl)B(O)O,"human, plasma","oral, 4 mg, day 1, alone",1.49
O[C@H]1CCCN[C@@H]1CCCn1cnc2c(Cl)c(Cl)ccc21,"healthy human volunteers, plasma","oral, 25 mg, day 1, median",3.5
COc1ccc(C[C@@H]2NC(=O)[C@H]([C@@H](C)O)NC(=O)[C@@H]3[C@@H]4CCN3C(=O)[C@@H]3Cc5cn(c6ccc(F)cc56)CCCCCCN(Cc5ccc(cc5)CCNC(=O)[C@]5(C)CCCN5C2=O)C(=O)CCC(=O)N[C@@H](C)C(=O)N[C@H](CNC(=O)CCCCC[N+](C)(C)C)C(=O)N[C@@H](Cc2cccc(c2)CNC(=O)CO4)C(=O)N3)cc1,"fasted healthy humans, plasma","oral, 35 mg single dose, with 1800 mg Labrasol, median",1.5
O=c1[nH]c(Cc2ccccn2)nc2c1cnn2C1CCOCC1,"healthy male human, plasma","oral, 100 mg, median",0.86
C[C@@H](c1nc(-c2ccc(C#N)cc2)cs1)[C@](O)(Cn1cncn1)c1cc(F)ccc1F,"human, both sexes, plasma","oral, 200 mg QD, day 12, median, added: midazolam 3 mg",4.6
Cc1ncc2n1-c1ccc(Cl)cc1C(c1ccccc1F)=NC2,"human CYP3A5*3/*3 non-expressers, serum","oral, 4 mg, median, no co-treatment",0.76
CC[C@@]1(O)C(=O)OCc2c1cc1n(c2=O)Cc2cc3c(CN(C)C)c(O)ccc3nc2-1,"human patients, plasma","oral, 8 mg weekly, median, added: pazopanib 800 mg daily",1.28
CC(=C/C=C/C(C)=C/C(=O)O)/C=C1\CCCc2ccccc21,"healthy human volunteers, plasma","oral, 5 to 20 mg single dose",~3

# Some of these lines once more:
SMILES,test system,setting,Tmax [h]
O=c1[nH]c(Cc2ccccn2)nc2c1cnn2C1CCOCC1,"healthy male human, plasma","oral, 100 mg, median",0.86
